Measured values of several laboratories.
Lines come from different studies, so protocols differ.
Sample: plasma

The AUC of `COC1C=COC2(C)Oc3c(C)c(O)c4c(c3C2=O)C2=NC3(CCN(CC(C)C)CC3)NC2=C(NC(=O)C(C)=CC=CC(C)C(O)C(C)C(O)C(C)C(OC(=O)c2cncnc2)C1C)C4=O` (stereo not shown) is reported as 21200 ng·h/mL (female CD-1 mouse; intravenous, 5 mg/kg).
`O=C(Nc1ccc(C(F)F)cc1)[C@H](CC1CCCCC1)Nc1nn2c(=O)ccnc2s1` gave an AUC of 554 ng·h/mL (female nude mouse; intravenous, 1 mg/kg).
`O=S(=O)(N[C@H]1CCC[C@@H](N2c3ccccc3CCc3ccccc32)[C@@H]1O)c1ccc(OC(F)(F)F)cc1` has an AUC of 495 ng·h/mL (mouse; intravenous, 1 mg/kg).
The AUC of `CN[C@H](CC(C)C)C(=O)N[C@H]1C(=O)N[C@@H](CC(N)=O)C(=O)N[C@H]2C(=O)N[C@H]3C(=O)N[C@H](C(=O)N[C@H](C(=O)N[C@H](CCCNC(=N)N)C(N)=O)c4cc(O)cc(O)c4-c4cc3ccc4O)[C@H](O)c3ccc(c(Cl)c3)Oc3cc2cc(c3O[C@@H]2O[C@H](CO)[C@@H](O)[C@H](O)[C@H]2O[C@H]2C[C@](C)(N)[C@H](O)[C@H](C)O2)Oc2ccc(cc2Cl)[C@H]1O` is reported as 1800 ng·h/mL (female CD-1 mouse; intravenous, 1 mg/kg, single dose).
For `COC1C=COC2(C)Oc3c(C)c(O)c4c(c3C2=O)C2=NC3(CCN(CC(C)C)CC3)NC2=C(NC(=O)C(C)=CC=CC(C)C(O)C(C)C(O)C(C)C(OC(=O)c2cccnc2)C1C)C4=O` (stereo not shown), the AUC was 27900 ng·h/mL (female CD-1 mouse; intravenous, 5 mg/kg).
`COC1C(c2ccc(Cl)c(Cc3ccc(OC4CCOC4)cc3)c2)OC(CO)C(O)C1O` (stereo not shown) gave an AUC of 23600 ng·h/mL (CD-1 mouse; oral, 10 mg/kg).
`Cc1cc(C(=O)N[C@@H](CC(=O)NC(C)(C)C)C(=O)NCCNC(=O)c2cccc(-n3cccn3)c2)no1` gave an AUC of 3.3 ng·h/mL (mouse; oral, 1 mg/kg).
`COc1ccccc1NC(=O)OC1C(C)C(OC)C=COC2(C)Oc3c(C)c(O)c4c(c3C2=O)C2=NC3(CCN(CC(C)C)CC3)NC2=C(NC(=O)C(C)=CC=CC(C)C(O)C(C)C(O)C1C)C4=O` (stereo not shown) has an AUC of 22700 ng·h/mL (female CD-1 mouse; intravenous, 5 mg/kg).
The AUC of `Cc1cc(C(=O)N[C@@H](CC(=O)NC(C)(C)C)C(=O)NCCNC(=O)c2cc(-c3ccccc3)ccn2)no1` is reported as 14.8 ng·h/mL (mouse; intravenous, 0.1 mg/kg).
`O=S(=O)(N[C@H]1CCO[C@@H](C2c3ccccc3CCc3ccccc32)C1)c1ccc(OC(F)(F)F)cc1` has an AUC of 12900 ng·h/mL (mouse; oral, 30 mg/kg).

A few entries again:
For `COC1C=COC2(C)Oc3c(C)c(O)c4c(c3C2=O)C2=NC3(CCN(CC(C)C)CC3)NC2=C(NC(=O)C(C)=CC=CC(C)C(O)C(C)C(O)C(C)C(OC(=O)c2cccnc2)C1C)C4=O` (stereo not shown), the AUC was 27900 ng·h/mL (female CD-1 mouse; intravenous, 5 mg/kg).
